# Assay results from different studies.
# Compare with care: the assays were run in different laboratories. ± gives the spread as reported.
SMILES,target or system,test system,conditions,how to read,endpoint,value
CCCCCCCCCCCCCCCC(=O)N[C@@H](CCC(=O)NCCOCCOCCC(=O)NCCOCCOCCC(=O)NCCCC[C@H](NC(=O)[C@H](CC(=O)O)NC(=O)[C@H](CC(C)C)NC(=O)[C@H](Cc1ccc(O)cc1)NC(=O)[C@H](CCCCN)NC(=O)[C@H](CO)NC(=O)[C@H](Cc1ccc(O)cc1)NC(=O)[C@H](CC(=O)O)NC(=O)[C@H](CO)NC(=O)[C@@H](NC(=O)[C@H](Cc1ccccc1)NC(=O)[C@@H](NC(=O)CNC(=O)[C@H](CCC(N)=O)NC(=O)[C@@H](CO)NC(=O)[C@@H](N)Cc1c[nH]cn1)[C@@H](C)O)[C@@H](C)O)C(=O)N[C@@H](CCCNC(=N)N)C(=O)N[C@@H](CCCNC(=N)N)C(=O)N[C@@H](C)C(=O)N[C@@H](CCC(N)=O)C(=O)N[C@@H](CC(=O)O)C(=O)N[C@@H](Cc1ccccc1)C(=O)N[C@H](C(=O)N[C@@H](CCC(N)=O)C(=O)N[C@@H](Cc1c[nH]c2ccccc12)C(=O)N[C@@H](CC(C)C)C(=O)N[C@@H](CC(C)C)C(=O)N[C@@H](CC(N)=O)C(=O)N[C@H](C(=O)NCC(=O)NCC(=O)N1CCC[C@H]1C(=O)N[C@@H](CO)C(=O)N[C@@H](CO)C(=O)NCC(=O)N[C@@H](C)C(=O)N1CCC[C@H]1C(=O)N1CCC[C@H]1C(=O)N1CCC[C@H]1C(=O)N[C@@H](CO)C(N)=O)[C@@H](C)O)C(C)C)C(=O)O,,"rhesus monkey, plasma","subcutaneous, 20 µg/kg, single dose",,AUC(0-t),75.5 ng·h/mL
CC[C@H](C)[C@H](NC(=O)[C@H](CCCN)NC(=O)[C@H](CC(=O)O)NC(=O)[C@H](CC(C)C)NC(=O)C(C)(CC(C)C)NC(=O)[C@@H](NC(=O)[C@H](CO)NC(=O)[C@H](Cc1ccc(O)cc1)NC(=O)[C@H](CC(=O)O)NC(=O)[C@H](CO)NC(=O)[C@@H](NC(=O)[C@H](Cc1ccccc1)NC(=O)[C@@H](NC(=O)CNC(=O)[C@H](CCC(=O)O)NC(=O)C(C)(C)NC(=O)[C@@H](N)Cc1ccc(O)cc1)[C@@H](C)O)[C@@H](C)CC)[C@@H](C)CC)C(=O)N[C@@H](Cc1c[nH]cn1)C(=O)N[C@@H](CCC(N)=O)C(=O)NC(C)(C)C(=O)N[C@@H](CC(=O)O)C(=O)N[C@@H](Cc1ccccc1)C(=O)N[C@H](C(=O)N[C@@H](CCC(=O)O)C(=O)N[C@@H](Cc1ccc(O)cc1)C(=O)N[C@@H](CCCCNC(=O)COCCOCCNC(=O)COCCOCCNC(=O)CC[C@H](NC(=O)CCCCCCCCCCCCCCCCCCC(=O)O)C(=O)O)C(=O)N[C@@H](CC(C)C)C(=O)N[C@@H](CCC(=O)O)C(=O)NCC(=O)NCC(=O)N1CCC[C@H]1C(=O)N[C@@H](CO)C(=O)N[C@@H](CO)C(=O)NCC(=O)N[C@@H](C)C(=O)N1CCC[C@H]1C(=O)N1CCC[C@H]1C(=O)N1CCC[C@H]1C(=O)N[C@@H](CO)C(N)=O)C(C)C (some centres unmarked),,human,"subcutaneous, 0.3 to 25 mg single dose, median",,tmax,12 to 84 h
CC[C@H](C)[C@H](NC(=O)CNC(=O)[C@H](C)NC(=O)[C@H](CCC(=O)O)NC(=O)[C@@H]1CCCN1C(=O)[C@H](CC(=O)O)NC(=O)[C@H](C)NC(=O)[C@H](CCC(=O)O)NC(=O)[C@H](C)NC(=O)[C@H](CC(=O)O)NC(=O)[C@H](C)N)C(=O)NCC(=O)N[C@@H](C)C(=O)N[C@H](C(=O)N[C@@H](CC(C)C)C(=O)N[C@@H](CCCCN)C(=O)N[C@H](C(=O)N[C@@H](CC(C)C)C(=O)N[C@H](C(=O)N[C@H](C(=O)NCC(=O)N[C@@H](CC(C)C)C(=O)N1CCC[C@H]1C(=O)N[C@@H](C)C(=O)N[C@@H](CC(C)C)C(=O)N[C@H](C(=O)N[C@@H](CO)C(=O)N[C@@H](Cc1c[nH]c2ccccc12)C(=O)N[C@H](C(=O)N[C@@H](CCCCN)C(=O)N[C@@H](CCCNC(=N)N)C(=O)N[C@@H](CCCCN)C(=O)N[C@@H](CCCNC(=N)N)C(=O)N[C@@H](CCC(N)=O)C(=O)N[C@@H](CCC(N)=O)C(N)=O)[C@@H](C)CC)[C@@H](C)CC)[C@@H](C)O)[C@@H](C)O)C(C)C)C(C)C,"human erythrocytes, washed",,"1 h, 37 °C, 2% v/v RBC suspension",,HD50,29.2 ± 1.8 µmol/L
CCCC/C=C/C(=O)N[C@@H](Cc1csc2ccccc12)C(=O)N[C@H]1COC(=O)[C@@H]2C[C@@H](C)CN2C(=O)[C@H](C)NC(=O)[C@@H]2CCCCN2C(=O)[C@@H]2CCCN2C1=O,SARS-CoV-2,SB2,,relative to: CC50 over IC50,selectivity index,35 to 70
CCCCCCCCCCCCCCCC(=O)N[C@@H](CCC(=O)NCCCC[C@H](NC(=O)[C@H](CC(=O)O)NC(=O)[C@H](CO)NC(=O)[C@@H](NC(=O)[C@H](Cc1ccccc1)NC(=O)[C@@H](NC(=O)CNC(=O)[C@H](CCC(N)=O)NC(=O)[C@H](C)NC(=O)[C@@H](Cc1ccc(O)cc1)NC(C)=O)[C@@H](C)O)[C@@H](C)O)C(=O)N[C@@H](CO)C(=O)N[C@@H](CCCCN)C(=O)N[C@@H](Cc1ccc(O)cc1)C(=O)N[C@@H](CC(C)C)C(=O)N[C@@H](CC(=O)O)C(=O)N[C@@H](CCC(=O)O)C(=O)N[C@@H](CCCNC(=N)N)C(=O)N[C@@H](C)C(=O)N[C@@H](C)C(=O)N[C@@H](CCC(N)=O)C(=O)N[C@@H](CC(=O)O)C(=O)N[C@@H](Cc1ccccc1)C(=O)N[C@H](C(=O)N[C@@H](CCC(N)=O)C(=O)N[C@@H](Cc1c[nH]c2ccccc12)C(=O)N[C@@H](CC(C)C)C(=O)N[C@@H](CC(C)C)C(=O)N[C@@H](CCC(=O)O)C(=O)NCC(=O)NCC(=O)N1CCC[C@H]1C(=O)N[C@@H](CO)C(=O)N[C@@H](CO)C(=O)NCC(=O)N[C@@H](C)C(=O)N1CCC[C@H]1C(=O)N1CCC[C@H]1C(=O)N1CCC[C@H]1C(=O)N[C@@H](CO)C(N)=O)C(C)C)C(=O)O,,"male Wistar rat, plasma","subcutaneous, 0.02 mg/kg",,AUC(0-inf),235 ng·h/mL
CC[C@H](C)[C@H](NC(=O)[C@H](CO)NC(=O)[C@H](Cc1ccc(O)cc1)NC(=O)[C@H](CC(=O)O)NC(=O)[C@H](CO)NC(=O)[C@@H](NC(=O)[C@H](Cc1ccccc1)NC(=O)[C@@H](NC(=O)CNC(=O)[C@H](CCC(=O)O)NC(=O)[C@@H](C)NC(=O)[C@@H](N)Cc1ccc(O)cc1)[C@@H](C)O)[C@@H](C)CC)C(=O)N[C@@H](C)C(=O)N[C@@H](CCSC)C(=O)N[C@@H](CC(=O)O)C(=O)N[C@@H](CCCCN)C(=O)N[C@H](C(=O)N[C@@H](Cc1c[nH]cn1)C(=O)N[C@@H](CCC(N)=O)C(=O)N[C@@H](CCC(N)=O)C(=O)N[C@@H](CC(=O)O)C(=O)N[C@@H](Cc1ccccc1)C(=O)N[C@H](C(=O)N[C@@H](CC(N)=O)C(=O)N[C@@H](Cc1c[nH]c2ccccc12)C(=O)N[C@@H](CC(C)C)C(=O)N[C@@H](CC(C)C)C(=O)N[C@@H](C)C(=O)N[C@@H](CCC(N)=O)C(=O)N[C@@H](CCCCN)C(=O)N1CCC[C@H]1C(=O)N[C@@H](CO)C(=O)N[C@@H](CO)C(=O)NCC(=O)N[C@@H](C)C(=O)N1CCC[C@H]1C(=O)N1CCC[C@H]1C(=O)N1CCC[C@H]1C(=O)N[C@@H](CO)C(N)=O)C(C)C)[C@@H](C)CC,,human kidney membranes,"5 h, 37 °C",,metabolic stability,stable
CCc1ccccc1NC(=S)N/N=C/c1ccc(O)cc1O,MCF7,,"25 µM, 24 h",,viability,> 90%
CCCCCCCCCCCCCCCCCC(=O)N[C@@H](CCC(=O)NCCCC[C@H](NC(=O)[C@H](CCC(N)=O)NC(=O)[C@H](CCCCN)NC(=O)[C@H](CO)NC(=O)[C@H](CC(C)C)NC(=O)[C@H](CC(=O)O)NC(=O)[C@H](CO)NC(=O)[C@@H](NC(=O)[C@H](Cc1ccccc1)NC(=O)[C@@H](NC(=O)CNC(=O)[C@H](CCC(N)=O)NC(=O)[C@@H](CO)NC(=O)[C@@H](N)Cc1c[nH]cn1)[C@@H](C)O)[C@@H](C)O)C(=O)N[C@@H](CC(=O)O)C(=O)N[C@@H](CCC(=O)O)C(=O)N[C@@H](CCC(N)=O)C(=O)N[C@@H](CC(C)C)C(=O)N[C@@H](C)C(=O)N[C@@H](CCCCN)C(=O)N[C@@H](CC(=O)O)C(=O)N[C@@H](Cc1ccccc1)C(=O)N[C@H](C(=O)N[C@@H](CCC(=O)O)C(=O)N[C@@H](Cc1c[nH]c2ccccc12)C(=O)N[C@@H](CC(C)C)C(=O)N[C@@H](CCCCN)C(=O)N[C@@H](C)C(=O)NCC(=O)NCC(=O)N1CCC[C@H]1C(=O)N[C@@H](CO)C(=O)N[C@@H](CO)C(=O)NCC(=O)N[C@@H](C)C(=O)N1CCC[C@H]1C(=O)N1CCC[C@H]1C(=O)N1CCC[C@H]1C(=O)N[C@@H](CO)C(N)=O)[C@@H](C)CC)C(=O)O,,"obese diabetic cynomolgus monkey, serum","dose not given, day 43",,ALT,50.9 ± 16.3 U/L

# A few entries again:
SMILES,target or system,test system,conditions,how to read,endpoint,value
CC[C@H](C)[C@H](NC(=O)[C@H](CCCN)NC(=O)[C@H](CC(=O)O)NC(=O)[C@H](CC(C)C)NC(=O)C(C)(CC(C)C)NC(=O)[C@@H](NC(=O)[C@H](CO)NC(=O)[C@H](Cc1ccc(O)cc1)NC(=O)[C@H](CC(=O)O)NC(=O)[C@H](CO)NC(=O)[C@@H](NC(=O)[C@H](Cc1ccccc1)NC(=O)[C@@H](NC(=O)CNC(=O)[C@H](CCC(=O)O)NC(=O)C(C)(C)NC(=O)[C@@H](N)Cc1ccc(O)cc1)[C@@H](C)O)[C@@H](C)CC)[C@@H](C)CC)C(=O)N[C@@H](Cc1c[nH]cn1)C(=O)N[C@@H](CCC(N)=O)C(=O)NC(C)(C)C(=O)N[C@@H](CC(=O)O)C(=O)N[C@@H](Cc1ccccc1)C(=O)N[C@H](C(=O)N[C@@H](CCC(=O)O)C(=O)N[C@@H](Cc1ccc(O)cc1)C(=O)N[C@@H](CCCCNC(=O)COCCOCCNC(=O)COCCOCCNC(=O)CC[C@H](NC(=O)CCCCCCCCCCCCCCCCCCC(=O)O)C(=O)O)C(=O)N[C@@H](CC(C)C)C(=O)N[C@@H](CCC(=O)O)C(=O)NCC(=O)NCC(=O)N1CCC[C@H]1C(=O)N[C@@H](CO)C(=O)N[C@@H](CO)C(=O)NCC(=O)N[C@@H](C)C(=O)N1CCC[C@H]1C(=O)N1CCC[C@H]1C(=O)N1CCC[C@H]1C(=O)N[C@@H](CO)C(N)=O)C(C)C (some centres unmarked),,human,"subcutaneous, 0.3 to 25 mg single dose, median",,tmax,12 to 84 h
